Published values gathered from unrelated publications.
Numbered parts are unrelated; each lists some results of a single study. Changes are numbered by the printed parent chain.

Sample 1
Target: RNA binding protein fox-1 homolog 2, RRM domain, GST-SBP tag (RBFOX2, Homo sapiens, UniProt O43251-10, residues 100-194)
Method: RNA Bind-n-Seq
Form: RNA
Matrix: in vitro
Tested at: 365 nM
Setting: natural RNA segment, single round, ends assumed
Relative to: no-protein control
Direction: higher = stronger binding
Shared flanks, not repeated: GGGAGUUCUACAGUCCGACGAUC … UGGAAUUCUCGGGUGCCAA
Construct (chain): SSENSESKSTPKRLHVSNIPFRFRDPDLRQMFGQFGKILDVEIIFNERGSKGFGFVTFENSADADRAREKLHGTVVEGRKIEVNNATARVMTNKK
Strand | RBNS enrichment (R)
UGUCUGUGUCACUCCCCUCCCUUCCAGACUGGGCCUGGCUGCUGGGAUCCCUCUCAUGCGGUGGGUCCCAGGGACACUAGAGCCCCUGGUCUGAGAGGGAGAAGCCUGGA | 0.178
GUGUGCACUCGUGGCUGCACAGAUGAAGCCCAUGCUGAGUCUGUGGGAACACCCACACUCAGUGCACCCUGUGGGUGACCCUCCCUACACAGUGCAGAGCAGAGCCCAGG | 0.283
GAAGCAGUGAGCCGCAUCUUCUCCAUCUGGCAGGGUGGGAUGGAGGAGAAGAAUUUUCAGACCCCAGCGGCUGAGUCAUGAUCUCCCUGCCGCCUCAAUGUGGUUGCAAG | 0.737
UUCACUGUGGAGACAAUGACAGUAUUCUCUGUGCCAGUGUCGCUGAUGGAGCUCCCCCUCCCCACAGGGCUGCCAUUACCAGACCACGGCCCUGCAGGGCCCUGGGCUCC | 0.364
ACAUAUCCUGGAUCACAAAGCAAAGAAGAUGAACAGGUCCAGACACUGAGGCAAAUGGUACCUCAUUGGGUUGGAGACCCUCACCGGUUACUAUUUAUUUUACCCCACAC | 0.543
UCCUUUGAAAAUCCAAUAGAAGGUUAAUAGUAUUCACACACAGGUCUAGGCAGGGUUUUAAACAUAUUCCCCAUCAGUUUUUAGGUUAACAUAUACUUGCUAUAGCUAAU | 0.554
UAAUCCACUGUGCUGUGGCUCGCUGACCACUGUGUCCUUGUCAUGGACACCAGUGACCAUGCACAGUUGUGUUCCUUGCAUUCUAAGUCAGUGGAGGGAAGCAGAGCUUU | 0.29
UGGACCUGGGGAGUGGAUAUCAGAUGGGAUAUCUCCUUCCAUUCCCCGGUCCAGGGGAGAGUCACUAGUUGUACCCUACUCCAUUAGGUCCCAAAUGGGGGCCCCAUUUC | 0.346

Sample 2
Target: Histone acetyltransferase KAT6A, both winged helices, GST fusion (KAT6A, Homo sapiens, UniProt Q92794, residues 1-181)
Method: protein binding microarray
Form: double-stranded DNA, one strand shown
Matrix: in vitro
Tested at: not given
Setting: 8-mer, flanks averaged, mean of 2 arrays, mostly near background
Relative to: not given
Direction: higher = stronger binding
Residues (chain): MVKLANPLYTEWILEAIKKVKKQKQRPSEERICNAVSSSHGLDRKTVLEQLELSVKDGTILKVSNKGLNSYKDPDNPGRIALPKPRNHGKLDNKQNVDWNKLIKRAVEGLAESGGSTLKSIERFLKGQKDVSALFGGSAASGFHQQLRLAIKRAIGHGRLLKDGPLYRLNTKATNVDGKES
Strand | E-score
AAGCTTAC | -0.0777
GGGGGACA | -0.212
GTTAGATA | -0.0766
AGCAAGCA | -0.0823
CGGGGATC | 0.149
GAGCTAGA | -0.0612
AGGGTCCC | -0.105
CCGGCCCG | 0.336
AGCCTTTG | -0.215
GCGATTGA | 0.0477
TTATAAAA | 0.0272
AACCTGAC | -0.1
CACCGGTG | 0.0725
GCCAATTA | -0.128
CACGTTTC | -0.0723
AGCGAAAA | -0.0448
GTCGGGAA | 0.133
GAGATTGA | -0.124
ATGTTTTG | -0.0479
ATATATCA | 0.0099
AATCAAGC | 0.0329
GTGTTACA | -0.0107
GACGATAA | -0.0507
AATGTTGA | -0.135
ATACGCCG | 0.31

Sample 3
Target: Prothrombin, mature alpha-thrombin (F2, Homo sapiens, UniProt P00734)
Method: aptamer microarray, sandwich
Form: DNA with 2'F-ANA
Matrix: in vitro
Tested at: 200 nM
Setting: whole 15-mer aptamer, many near background
With: Cy3 exosite-II aptamer, 400 nM
Direction: higher = stronger binding
Strand: GGTTGGTGTGGTTGG
Modification | mean fluorescence intensity [a.u.]
2'F-ANA at 1 4 7 10 11 12 13 | 51.3
2'F-ANA at 1 3 10 13 15 | 170
2'F-ANA at 5 6 7 9 12 15 | 140
2'F-ANA at 2 3 6 8 11 14 | 362
2'F-ANA at 1 2 3 5 6 7 9 12 14 15 | 49.4
2'F-ANA at 3 4 6 9 13 14 | 216
2'F-ANA at 1 2 3 4 6 7 8 10 11 13 15 | 55.3
2'F-ANA at 2 9 11 12 14 | 172
2'F-ANA at 1 3 4 5 10 11 12 13 | 47.7
2'F-ANA at 1 3 4 6 7 9 10 11 12 13 14 15 | 55.2
2'F-ANA at 1 2 6 8 9 10 11 12 13 15 | 87.3
2'F-ANA at 2 3 5 9 12 13 14 15 | 55.1
2'F-ANA at 1 3 4 5 8 9 10 | 56.4
2'F-ANA at 4 5 6 7 8 10 15 | 97.5
2'F-ANA at 1 3 5 6 11 13 14 15 | 46
2'F-ANA at 3 4 9 12 | 975
2'F-ANA at 1 2 3 4 8 13 | 152
2'F-ANA at 1 2 4 5 7 8 9 10 12 13 | 49.4
2'F-ANA at 1 2 5 6 7 8 10 13 14 | 86.7

Sample 4
Target: CCNF, cyclin fold, Cln2 fusion (human)
Method: yeast growth competition, sequencing
Matrix: yeast
Setting: strong parent motif
Relative to: not given
Direction: higher = stronger binding
Starting sequence: GMNC docking peptide (human); KNAKRNLSSEFAN
Change | normalised enrichment score
N6Q | 0.726
K4G | 0.456
R5V | -0.263
E10R | 1.15
K4V | 0.754
S8V | 0.784
S9W | 1.36
S8C | 0.668
A3M | 0.811
K4W | 0.493
K4E | -0.293
N2R | 1.25
S8K | 0.575
S8I | 0.65
L7H | 0.375
N2C | 0.965
R5Q | 0.0903
R5H | 0.259
N2K | 1.17
N6W | 0.757
R5K | 0.221
F11K | 0.426
E10N | 0.89
A12C | 0.725
N2H | 0.62
